# Published values pooled from the literature.
# Every numbered part comes from another study and shows a few of its results, in no order. Positions count from the first letter of the parent shown.

# Block 1
# Target: CCNB3, cyclin fold, Cln2 fusion (human)
# Technique: yeast growth competition, sequencing
# Matrix: yeast
# Setting: weak parent motif
# Relative to: not given
# Reading: higher = stronger binding
# Starting sequence: RB1 docking peptide (human); PKPLKKLRFDIEG
Change,normalised enrichment score
PKDLKKLRFDIEG [P3D],0.432
PKPLHKLRFDIEG [K5H],0.352
PKPLKKNRFDIEG [L7N],-0.106
PKPLKKLRFDIGG [E12G],0.501
PKPLKKLGFDIEG [R8G],0.0966
PWPLKKLRFDIEG [K2W],0.0901
PKPLKKLRADIEG [F9A],0.501
PKPLKKLLFDIEG [R8L],-0.108
PKPLKELRFDIEG [K6E],-0.0629
DKPLKKLRFDIEG [P1D],0.613
PKPLKKLRFDIEF [G13F],-0.0514
PKPLKTLRFDIEG [K6T],0.135
PKPMKKLRFDIEG [L4M],0.353
PKPLQKLRFDIEG [K5Q],0.3
PKPLKKLRFFIEG [D10F],0.0933
PKPLKKLIFDIEG [R8I],0.286
PVPLKKLRFDIEG [K2V],0.581
PKRLKKLRFDIEG [P3R],0.423
PKPLKKLRFDICG [E12C],0.0779
PKPLKSLRFDIEG [K6S],0.124
PRPLKKLRFDIEG [K2R],-0.142

# Block 2
# Target: Centromere-binding protein 1, full length, N-terminal tag (CBF1, Saccharomyces cerevisiae, UniProt P17106, residues 1-351)
# Chain of UniProt P17106 (whole entry, looked up): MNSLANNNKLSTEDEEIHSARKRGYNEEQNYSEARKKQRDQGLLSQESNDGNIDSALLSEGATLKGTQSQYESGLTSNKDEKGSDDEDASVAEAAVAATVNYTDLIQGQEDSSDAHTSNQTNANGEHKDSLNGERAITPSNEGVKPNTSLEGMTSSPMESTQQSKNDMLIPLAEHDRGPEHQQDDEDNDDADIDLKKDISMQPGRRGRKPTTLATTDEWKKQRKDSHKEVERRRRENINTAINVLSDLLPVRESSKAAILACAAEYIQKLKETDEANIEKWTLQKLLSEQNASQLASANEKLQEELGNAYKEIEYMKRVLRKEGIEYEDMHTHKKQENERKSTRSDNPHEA
# Technique: protein-binding microarray
# Molecule type: double-stranded DNA, one strand shown
# Matrix: in vitro
# Concentration: 0.8 µM
# Setting: whole 60-bp probe, no competitor
# Reading: higher = stronger binding
Oligonucleotide,fluorescence intensity [a.u.]
TGTACGAAGCTATAGCACGTGGGTATAGTAGTTAGGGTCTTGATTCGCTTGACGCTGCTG,4930
TGTACGAAGCTATGGGAGATCACTATAGTAGTTAGGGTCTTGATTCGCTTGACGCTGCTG,515
CTATGAGCAAAGCACGCCATCACTAATGGAACCTTCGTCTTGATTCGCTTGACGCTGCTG,538
TGTACGAAGCTATATCACCACAATATAGTAGTTAGGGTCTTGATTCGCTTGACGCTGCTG,507
GAAACGCAGACGTAACATCAGTCATCAGTTAATTAGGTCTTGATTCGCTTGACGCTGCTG,534
CTATGTGTTGGCTCTCACCTGCGCTTGCTGCAATTCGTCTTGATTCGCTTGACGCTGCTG,559
TGTACGAAGCTATCGTGCATTCCTATAGTAGTTAGGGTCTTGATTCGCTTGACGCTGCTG,513
CTAGATATTTACATTCACCTCACATATATACGCTTCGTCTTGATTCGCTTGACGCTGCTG,532
TGTACGAAGCTATGTTTCGTGCTTATAGTAGTTAGGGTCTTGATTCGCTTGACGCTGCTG,502
GAATTTATTAGAAATGGGGTCACAATCATCCGATAGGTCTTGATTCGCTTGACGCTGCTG,579
CCTAACTACTATAATCACGTGCAATAGCTTCGTACAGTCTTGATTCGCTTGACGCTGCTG,10200
GAATAAAACAGACTATACATGATGTTAAGACTATAGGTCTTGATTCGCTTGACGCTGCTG,504
GAATTTAAGCAACATCAGCTGCACTAGTTGAGCTAGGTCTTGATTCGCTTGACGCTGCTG,517
CTAAAAAAAGCCAACGAGATCACGTGCACAGAATTCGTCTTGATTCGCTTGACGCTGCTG,22900
GAATTGTATGTGAAGCACGTTGCTGCCCCCTTTTAGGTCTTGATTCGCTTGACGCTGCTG,788
CTAATGGAAAAATCACCTGGCACGTCATTTCATTTCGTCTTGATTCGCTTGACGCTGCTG,676
GAATTTTAGTTAGGACACGTTTCACAGGAGCATTAGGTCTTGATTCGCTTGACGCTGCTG,678
CTAAACGATACCGAACATGTCACCTTGCATACCTTCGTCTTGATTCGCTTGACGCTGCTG,513
CCTAACTACTATACACCGACCACATAGCTTCGTACAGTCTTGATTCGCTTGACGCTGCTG,541
GAATTGTCTTAGTATCACCTGAGTGGTTATTCATAGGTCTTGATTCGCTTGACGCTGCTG,1090
TGTACGAAGCTATGTGACTACACTATAGTAGTTAGGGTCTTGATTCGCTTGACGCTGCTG,530
CTAGCAAGGCGCGGGCGGGTGACAAGAAGATTTTTCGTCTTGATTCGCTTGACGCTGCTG,480
TGTACGAAGCTATATCTGGTGGTTATAGTAGTTAGGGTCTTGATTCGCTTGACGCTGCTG,509

# Block 3
# Target: RING finger protein unkempt homolog, zinc fingers 1-6, GST-SBP tag (UNK, Homo sapiens, UniProt Q9C0B0, residues 30-357)
# Technique: RNA Bind-n-Seq
# Molecule type: RNA
# Matrix: in vitro
# Concentration: not given
# Setting: RNA with constant flanks, human and mouse sites, ends assumed
# Relative to: input RNA pool
# Reading: higher = stronger binding
# Target sequence (chain): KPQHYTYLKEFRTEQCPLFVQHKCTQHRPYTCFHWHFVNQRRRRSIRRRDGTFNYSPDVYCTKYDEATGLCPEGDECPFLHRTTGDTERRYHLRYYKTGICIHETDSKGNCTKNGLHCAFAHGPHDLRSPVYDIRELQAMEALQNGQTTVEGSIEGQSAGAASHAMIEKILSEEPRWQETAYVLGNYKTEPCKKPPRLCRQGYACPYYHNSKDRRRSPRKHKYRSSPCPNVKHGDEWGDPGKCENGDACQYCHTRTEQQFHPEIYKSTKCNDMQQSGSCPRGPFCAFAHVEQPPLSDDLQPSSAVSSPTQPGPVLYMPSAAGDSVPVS
Oligonucleotide,bound/input enrichment [ratio]
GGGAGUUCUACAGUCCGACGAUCAGCCUGUGGUGGGCGCUGCGGGUGUUUGCAGGAGGUUGCAGUACUCGCUGGGCUGAGGUCGUCUCGGGUGAGGAGGUCGCGCCGGAAGUGGCUCUAGCCGUGGCGCUUCGGCGUAGUAAGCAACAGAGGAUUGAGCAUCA,0.444
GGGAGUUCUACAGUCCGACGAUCACGGACGGUCUGGAUGCCUCCUCCAGCCAGACAGUGACCCCAGUAGCAGAACCGCUGAGUUCUGAGCCGACACCACCAGAUGGGCCCACUUCCUCCUUGGGUCCCUUGGAUCUGCUGUCUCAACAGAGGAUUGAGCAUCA,0.287
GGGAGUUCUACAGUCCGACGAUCUUUCUAAAAUACUGGCAUGCUGACCAACUCAAUGAUUUGUGCCUACAGUUGCAGAGAAAAAUUAUAACCUGCCAAAAAGUUAUCAGAGGAUUUUUAGCACGCCAGCACCUGCUUCAGAGACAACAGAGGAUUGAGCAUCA,0.293
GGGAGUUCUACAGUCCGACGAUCUGUUUAAUAAAUUACAUCCAACUUGUUCCUUCCUUCUUAAAUCAUAUUUAUAUAUGCAUCUCUUUCAAAAGCUUCAGCGCCUGCUCCUGGUCAUCACUAACCAGAUUUACUUGGAGUACACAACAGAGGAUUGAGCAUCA,0.449
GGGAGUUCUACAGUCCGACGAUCGUGCUCUGCGUCUCGGCCGCGCAGCCCAACAUCACCACCCUGGCUCCCAACGUGACCGAGGUGCCGACCACGACCACCAAAGUGGUCCCGACGACGCAAAUGCCCACCGUGCUACCAGAACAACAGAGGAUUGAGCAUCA,0.0946
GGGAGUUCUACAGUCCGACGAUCGAUAAGUGUGUGGAGAAGCCAGGAAGUCGGCUAGACUCCCGCACUGAAAACUGCCUCUCUAGCUGUGUGGAUCGCUUCAUUGACACUACUCUUGCCAUCACCGGUCGGUUUGCCCAGAUCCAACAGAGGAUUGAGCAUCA,0.152
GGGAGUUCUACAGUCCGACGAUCAACGAGGCUUCGAAAGCACACGUUAGAAGCAGAUGGAGAUGUGGCUGGGGCAUCAGGAGGACUAGAGAUGGUGGAUGUGAAAGGGAAGCCACCAUGUGGCUCUUGUCUUCAAUGGUAUCCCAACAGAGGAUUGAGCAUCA,0.186
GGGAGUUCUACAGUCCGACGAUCGUGAGUCCCCUACUAAUGAGGCCCUUCCCAAAGCACUGCACAGAGUACAUGAGGCCCUGGGCUGACAGCUGGCGGGAAAGACCGGUUCUGACUCAGGUGAAGUCACAGGAGUUACUCACACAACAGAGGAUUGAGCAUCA,0.0518
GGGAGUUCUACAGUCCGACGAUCAGUACUGGCAGUCGAGGCAGCUGCGGAUCAUCAGGAAGAACUGCUGAGAAAAGUGCUCAUAGUUUCAAGUCUGAUCAGGUGAAGGUCAAGCAGGAACCUGGGACUGAAGAAGAGAUAUGCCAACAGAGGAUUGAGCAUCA,0.13
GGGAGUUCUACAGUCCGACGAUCCUGGUCUUGUUCUGGUCAUCUCCUGCCUCUUGUAUGCUGGAAUUUUGGCCUGAAUGACUAUUCUACUUCUCUCUGGGAUAUGAAGUAUUUGUGAGUAACUCAGGAUGUUCCUAAGUGGCCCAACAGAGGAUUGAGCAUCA,0.103
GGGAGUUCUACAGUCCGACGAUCGAGGAGAAGCAACGGGAGCUGGCCCGGAAGGGUUCCCUGAAGAACGGCAGCAUGGGCAGCCCUGUCAACCAGCAACCCAAGAAGAACAACGUCAUGGCCCGGACGAGGCUGGUCGUCCCUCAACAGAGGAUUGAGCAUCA,0.147

# Block 4
# Target: Interferon regulatory factor 5, full length, phosphomimetic (IRF5, Homo sapiens, UniProt Q13568-2, residues 1-514, S451D/S453D/S456D/S462D)
# Technique: protein-binding microarray
# Molecule type: double-stranded DNA, one strand shown
# Matrix: in vitro
# Concentration: 940 nM top
# Setting: 60-bp whole probe
# With: salmon DNA 0.4 mg/ml
# Relative to: random background probes
# Reading: higher = stronger binding
# All sequences stand within: GCCTAGCACT … GTCTTGATTCGCTTGACGCTGCTG
Oligonucleotide,fitted relative affinity
CATATTTAAGGCTAGGACTGTGCTAG,-0.158 z-score
TAGGACTTGGTATCGGTTAGTGCTAG,6.75 z-score
TAGGTATCCTACTGCATTAGTGCTAG,-0.1 z-score
TAGATATCGTGACTGGATTAGTGCTA,-0.364 z-score
TAGGACTGGAATTTCGGTTAGTGCTA,0.24 z-score
TAGGACTGGACTATCAGTTAGTGCTA,-0.721 z-score
CATCTATCAAAAATACAACTGTGCTA,0.565 z-score
TAGATTTCAGTTCCGATTGGTGCTAG,1.84 z-score
TAGGTTGCCTTATCCTTTAGTGCTAG,0.0207 z-score
CAGCTCTTTCGTTACTTACTGTGCTA,2.11 z-score
TAGAACTGGACTATCGGTTAGTGCTA,0.106 z-score
TAGGTTCCGGTTTCGGTCAGTGCTAG,9.12 z-score

# Mixed results
Substance,target,test,test system,setting,scale,quantity,value
"PhoQ, residues 284 288 289 292 302 303 SSYNSA","PhoP, residues 12 14 15 18 19 NNFVT (Escherichia coli, UniProt P23836)","Sort-seq, item: YFP reporter",E. coli,"PhoQ-PhoP variant library, with: 10 µM Mg2+","relative to: high Mg2+ state, higher = stronger signaling",fold induction,1.77

# Some of these lines once more (block 1):
Change,normalised enrichment score
PKPLKKLIFDIEG [R8I],0.286
PKPLKKNRFDIEG [L7N],-0.106
PKPLKKLGFDIEG [R8G],0.0966
DKPLKKLRFDIEG [P1D],0.613
PKPLKTLRFDIEG [K6T],0.135
PKPLHKLRFDIEG [K5H],0.352
PKPLKELRFDIEG [K6E],-0.0629
PKPLQKLRFDIEG [K5Q],0.3
PKPLKSLRFDIEG [K6S],0.124
